Experimental data collected from several papers.
Compare with care: the assays were run in different laboratories.
LCK: Tyrosine-protein kinase Lck (LCK, Homo sapiens, UniProt P06239)

SMILES	target	assay	conditions	scale	measurement	result
NC(=O)[C@@H](O)C[C@H]1CCc2sc3ncnc(O[C@H]4CC[C@H](N5CCOCC5)CC4)c3c21	LCK	enzyme activity, inhibitor	10 µM	–	inhibition	72%
CNC(=O)C[C@H](Cc1ccc(C#N)cc1)NC(=O)c1cc(-c2ccc(CN[C@H](C)c3ccc(C)cc3)o2)ccc1Cl	LCK	enzyme activity, inhibitor	1 µM	–	activity vs control	95%
Cc1cnc2nc1Nc1cccc(c1)COC/C=C/COCc1cc(ccc1OCCN1CCOCC1)N2	LCK	binding	0.1 µM	–	remaining binding	45%
C[C@H]1CN(C(=O)c2cn(-c3ccnc(N)n3)c3cc(C#CC4(O)CCCCC4)ccc23)CCN1	LCK	enzyme activity, inhibitor, FRET	1 µM	–	inhibition	7%
C=CC(=O)Nc1cccc(-c2cnc3[nH]cc(C(=O)NC(C)(C)C)c3n2)c1	LCK	enzyme activity, inhibitor	0.1 µM	–	inhibition	13%
COc1ccc(NC(=O)Nc2ccc3c(c2)C(=O)N(C(C)CO)CC(C)C(CN(C)Cc2ccc4c(c2)OCO4)O3)cc1 (stereo not shown)	Tyrosine-protein kinase Lck, activated (LCK, Homo sapiens, UniProt P06239)	kinase activity	0.03 µM	relative to: control	remaining activity	92%
CNC(=O)C1CCN(c2cc(C)c(F)cc2NC(=O)c2ccc(-c3cc(O)ccc3C)c(C)c2)CC1	LCK	binding, competition with immobilised ligand	1 µM	–	remaining binding	2.4%
COc1c(Cl)cccc1Nc1c(-c2ccncc2C#C[C@@]2(C)CCCN2C(=O)/C=C/CN(C)C)[nH]c2c1C(=O)NCC2	LCK	binding, competition with immobilised ligand	3 µM	–	remaining binding	38%
COc1c(OCCCN2CCOCC2)ccc2c1N=C(NC(=O)c1cnc(N)nc1)N1CCN=C21	LCK	kinase activity, inhibitor	1 µM	relative to: untreated control	remaining activity	93%
Nc1nc(Nc2ccccc2)sc1C(=O)c1ccccc1	LCK	enzyme activity, inhibitor	10 µM	–	remaining activity	53%
CCn1cc(C(=O)O)c(=O)c2c(N)c(F)c(NC3CCCCC3)cc21	LCK	kinase activity	0.1 µM, added: ATP at Km	–	inhibition	1.5%
CN1CCN(Cc2ccc(-c3ccc(CO[C@H]4CCC[C@@H]4NC(=O)c4cc(-c5cnn(C)c5)cnc4N)cc3)cc2)CC1	LCK	enzyme activity, inhibitor	0.1 µM	–	inhibition	6%
CCN1CCN(Cc2ccc(NC(=O)c3ccc(C)c(NC(=O)c4cncc(-c5cccs5)c4)c3)cc2C(F)(F)F)CC1	LCK	binding, competition with immobilised ligand	1 µM	–	remaining binding	1%
CCN1CCN(Cc2ccc(C(=O)Nc3ccc(C)c(NCc4cnc5[nH]ccc5c4OC)c3)cc2C(F)(F)F)CC1	LCK	binding, competition with immobilised ligand	1 µM	–	remaining binding	0.3%
c1ccc2c(Nc3cc(C4CCC4)[nH]n3)nc(Nc3ccc4nc[nH]c4c3)nc2c1	LCK	enzyme activity, inhibitor	0.25 µM	–	remaining activity	1%
Cc1ccc(-c2c(/C=C(\C#N)C(=O)NC(C)C)n(CCCO)c3ncnc(N)c23)cc1	LCK	cell-free assay, competition with immobilised ligand	1 µM	–	remaining binding	37%
Cc1cccc(-c2ccc3nc(NC(=O)C4CCOCC4)nn3c2)c1	LCK	enzyme activity, Dundee kinase panel	10 µM	–	remaining activity	80%
COc1cc(Nc2nccc(-c3cnn4nc(OC)ccc34)n2)cc(C(F)(F)F)c1	LCK	binding, competition with immobilised ligand	1 µM	–	remaining binding	98%
CNC1C[S+]2CC[S+]3CC[S+](C1)[Ru-4]321([N]=C=S)[n]2c3ccc(OC)cc3c3c4c(c5cc(F)c[n+]1c5c32)C(=O)NC4=O (stereo not shown)	LCK	KinomeScan	0.1 µM	relative to: untreated	remaining binding	98%
O=C(Cc1ccc(OCc2ccccc2)cc1)NC1(C(=O)O)CCN(C(=O)c2ccc(-c3cccc(Cl)c3)cc2)CC1	LCK	enzyme activity, inhibitor	10 µM	–	activity vs control	128%
Cc1cccc(-c2ccc3nc(NC(=O)C4CCCCC4)nn3c2)c1	LCK	enzyme activity, Dundee kinase panel	10 µM	–	remaining activity	77%
Cc1cccc(O[C@H]2CCC[C@@H](C(C)CNCc3ccncc3)C2)c1 (relative stereo)	LCK	enzyme activity, inhibitor	10 µM	–	inhibition	-7%

A few entries again:
SMILES	target	assay	conditions	scale	measurement	result
Nc1nc(Nc2ccccc2)sc1C(=O)c1ccccc1	LCK	enzyme activity, inhibitor	10 µM	–	remaining activity	53%
CNC(=O)C1CCN(c2cc(C)c(F)cc2NC(=O)c2ccc(-c3cc(O)ccc3C)c(C)c2)CC1	LCK	binding, competition with immobilised ligand	1 µM	–	remaining binding	2.4%
